{"data": "Experimental data from different studies", "note": "A part holds a random share of what one study measured. Substitutions count along the parent as printed."}
{"data": "Block 1", "target": "Sal-like protein 4, full length isoform A (SALL4, Homo sapiens, UniProt Q9UJQ4, residues 1-1053)", "technique": "universal PBM", "form": "double-stranded DNA, one strand shown", "sample": "in vitro", "tested at": "600 nM", "notes": "8-mer, flanks averaged, mean of replicates", "direction": "higher = stronger binding", "sequence of UniProt Q9UJQ4 (whole entry, looked up)": "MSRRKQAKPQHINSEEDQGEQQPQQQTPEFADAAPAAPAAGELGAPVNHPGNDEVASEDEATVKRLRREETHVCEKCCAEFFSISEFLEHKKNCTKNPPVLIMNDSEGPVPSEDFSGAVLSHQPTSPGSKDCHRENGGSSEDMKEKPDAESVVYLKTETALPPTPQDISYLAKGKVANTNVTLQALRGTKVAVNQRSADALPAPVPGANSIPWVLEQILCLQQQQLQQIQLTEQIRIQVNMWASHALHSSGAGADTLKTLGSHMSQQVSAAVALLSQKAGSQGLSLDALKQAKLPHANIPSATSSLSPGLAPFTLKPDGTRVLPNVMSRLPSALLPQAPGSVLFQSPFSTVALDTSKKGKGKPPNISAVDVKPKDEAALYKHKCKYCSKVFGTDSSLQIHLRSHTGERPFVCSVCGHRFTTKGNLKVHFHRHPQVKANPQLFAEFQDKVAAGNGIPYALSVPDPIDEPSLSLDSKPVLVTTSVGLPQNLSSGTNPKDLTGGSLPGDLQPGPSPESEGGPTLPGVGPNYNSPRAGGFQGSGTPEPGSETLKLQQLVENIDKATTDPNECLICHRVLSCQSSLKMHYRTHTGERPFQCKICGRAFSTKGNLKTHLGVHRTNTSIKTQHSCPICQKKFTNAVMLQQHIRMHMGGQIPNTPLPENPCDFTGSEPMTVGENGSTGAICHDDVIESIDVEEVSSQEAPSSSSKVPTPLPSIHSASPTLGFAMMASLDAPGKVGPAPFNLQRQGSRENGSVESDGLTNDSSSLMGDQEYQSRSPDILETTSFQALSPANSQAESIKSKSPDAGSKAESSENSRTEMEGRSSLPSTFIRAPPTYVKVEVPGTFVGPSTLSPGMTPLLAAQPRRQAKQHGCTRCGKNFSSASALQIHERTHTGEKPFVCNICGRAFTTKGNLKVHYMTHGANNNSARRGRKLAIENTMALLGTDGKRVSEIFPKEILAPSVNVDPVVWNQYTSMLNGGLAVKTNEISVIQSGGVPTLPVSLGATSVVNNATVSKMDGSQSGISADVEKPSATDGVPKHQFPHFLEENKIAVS"}
{"Sequence": "CGGGTATA", "E-score": 0.026}
{"Sequence": "AAAGCAAT", "E-score": 0.215}
{"Sequence": "CAGGTCCC", "E-score": -0.292}
{"Sequence": "ACGCCTCG", "E-score": -0.257}
{"Sequence": "CCGGGCAC", "E-score": -0.349}
{"Sequence": "CGCGTCAG", "E-score": -0.261}
{"data": "Block 2", "target": "RING finger protein unkempt homolog, zinc fingers 1-6, GST-SBP tag (UNK, Homo sapiens, UniProt Q9C0B0, residues 30-357)", "technique": "RNA Bind-n-Seq", "form": "RNA", "sample": "in vitro", "tested at": "not given", "notes": "RNA with constant flanks, human-mouse chimeric sites, ends assumed", "reference": "input RNA pool", "direction": "higher = stronger binding", "sequence of UniProt Q9C0B0 (30-357, looked up)": "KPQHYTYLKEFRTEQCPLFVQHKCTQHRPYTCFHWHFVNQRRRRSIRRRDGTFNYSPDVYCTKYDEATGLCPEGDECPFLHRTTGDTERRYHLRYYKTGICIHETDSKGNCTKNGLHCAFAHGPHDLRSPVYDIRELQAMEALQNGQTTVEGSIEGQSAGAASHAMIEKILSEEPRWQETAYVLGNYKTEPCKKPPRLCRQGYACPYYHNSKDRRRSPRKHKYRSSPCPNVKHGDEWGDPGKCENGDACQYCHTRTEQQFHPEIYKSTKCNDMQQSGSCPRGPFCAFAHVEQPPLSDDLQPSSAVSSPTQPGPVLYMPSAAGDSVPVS"}
{"Sequence": "GGGAGUUCUACAGUCCGACGAUCUACAUCACCAAUGUCCUACAAAAUCCUGACUUGGCUCUGAGAAUGGCUGUGCGGAACAACUUAGCUGGUGCUGAAGAACUCUUUGCCCGGAAAUUUAAUGCUCUCUUCGCCCAGGGAAACCAACAGAGGAUUGAGCAUCA", "bound/input enrichment [ratio]": 0.267}
{"Sequence": "GGGAGUUCUACAGUCCGACGAUCCCCCAAUACCAUUUGCAGGUCUGGAACUGCACUCUCUUUAAAGUUUUACAUGUAUACAUUUUAGGGCUGUAGAUUUAUUUUCCUGGUUUUGUUUUUCUUGCUUAUUCUUUGAGCACAGAACAACAGAGGAUUGAGCAUCA", "bound/input enrichment [ratio]": 2.34}
{"Sequence": "GGGAGUUCUACAGUCCGACGAUCUUAAUCCCCUUUACUGCUCCCCCACUUCUCAUGGUAAUAACAAAGUCUUAUAUUCCCGUCCUAGCUUUCACUCAGAUGGCUUAUGGAGCCAGUUUCCUAGCUUUCUUGGGAGGGAUCAGACAACAGAGGAUUGAGCAUCA", "bound/input enrichment [ratio]": 0.374}
{"data": "Further values, each from its own experiment", "CCNB2": "CCNB2, cyclin fold, Cln2 fusion (human)", "P1": "CDC25A docking peptide (human); PPHRRRLLFACSP; partner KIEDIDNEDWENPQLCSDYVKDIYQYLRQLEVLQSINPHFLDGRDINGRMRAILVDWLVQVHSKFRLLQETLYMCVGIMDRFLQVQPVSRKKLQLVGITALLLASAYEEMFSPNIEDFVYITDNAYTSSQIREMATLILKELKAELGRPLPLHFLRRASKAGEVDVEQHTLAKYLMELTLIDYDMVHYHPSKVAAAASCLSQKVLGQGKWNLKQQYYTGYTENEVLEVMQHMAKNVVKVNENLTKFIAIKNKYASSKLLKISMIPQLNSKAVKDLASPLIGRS"}
{"Molecule": "P1 F9M", "target": "CCNB2", "assay": "yeast growth competition, sequencing", "test system": "yeast", "setting": "weak parent motif", "how to read": "reference: not given, higher = stronger binding", "measurement": "normalised enrichment score", "value": 0.375}
{"Molecule": "PhoQ, residues 284 288 289 292 302 303 SIHMAM", "target": "PhoP, residues 12 14 15 18 19 IQSYL (Escherichia coli, UniProt P23836)", "assay": "Sort-seq, item: YFP reporter", "test system": "E. coli", "setting": "PhoQ-PhoP variant library, added: 10 µM Mg2+", "how to read": "reference: high Mg2+ state, higher = stronger signaling", "measurement": "fold induction", "value": 40}
{"Molecule": "P1 S12F", "target": "CCNB2", "assay": "yeast growth competition, sequencing", "test system": "yeast", "setting": "weak parent motif", "how to read": "reference: not given, higher = stronger binding", "measurement": "normalised enrichment score", "value": 0.566}
{"note": "Excerpt of the above (further values, each from its own experiment):"}
{"Molecule": "PhoQ, residues 284 288 289 292 302 303 SIHMAM", "target": "PhoP, residues 12 14 15 18 19 IQSYL (Escherichia coli, UniProt P23836)", "assay": "Sort-seq, item: YFP reporter", "test system": "E. coli", "setting": "PhoQ-PhoP variant library, added: 10 µM Mg2+", "how to read": "reference: high Mg2+ state, higher = stronger signaling", "measurement": "fold induction", "value": 40}
{"Molecule": "P1 F9M", "target": "CCNB2", "assay": "yeast growth competition, sequencing", "test system": "yeast", "setting": "weak parent motif", "how to read": "reference: not given, higher = stronger binding", "measurement": "normalised enrichment score", "value": 0.375}
